Measured values collected from several papers.
A part holds a random share of what one study measured. Values joined by “and” are separate records of one study, mostly repeats; a detail may differ.
UniProt P08922, sequence (whole entry, looked up): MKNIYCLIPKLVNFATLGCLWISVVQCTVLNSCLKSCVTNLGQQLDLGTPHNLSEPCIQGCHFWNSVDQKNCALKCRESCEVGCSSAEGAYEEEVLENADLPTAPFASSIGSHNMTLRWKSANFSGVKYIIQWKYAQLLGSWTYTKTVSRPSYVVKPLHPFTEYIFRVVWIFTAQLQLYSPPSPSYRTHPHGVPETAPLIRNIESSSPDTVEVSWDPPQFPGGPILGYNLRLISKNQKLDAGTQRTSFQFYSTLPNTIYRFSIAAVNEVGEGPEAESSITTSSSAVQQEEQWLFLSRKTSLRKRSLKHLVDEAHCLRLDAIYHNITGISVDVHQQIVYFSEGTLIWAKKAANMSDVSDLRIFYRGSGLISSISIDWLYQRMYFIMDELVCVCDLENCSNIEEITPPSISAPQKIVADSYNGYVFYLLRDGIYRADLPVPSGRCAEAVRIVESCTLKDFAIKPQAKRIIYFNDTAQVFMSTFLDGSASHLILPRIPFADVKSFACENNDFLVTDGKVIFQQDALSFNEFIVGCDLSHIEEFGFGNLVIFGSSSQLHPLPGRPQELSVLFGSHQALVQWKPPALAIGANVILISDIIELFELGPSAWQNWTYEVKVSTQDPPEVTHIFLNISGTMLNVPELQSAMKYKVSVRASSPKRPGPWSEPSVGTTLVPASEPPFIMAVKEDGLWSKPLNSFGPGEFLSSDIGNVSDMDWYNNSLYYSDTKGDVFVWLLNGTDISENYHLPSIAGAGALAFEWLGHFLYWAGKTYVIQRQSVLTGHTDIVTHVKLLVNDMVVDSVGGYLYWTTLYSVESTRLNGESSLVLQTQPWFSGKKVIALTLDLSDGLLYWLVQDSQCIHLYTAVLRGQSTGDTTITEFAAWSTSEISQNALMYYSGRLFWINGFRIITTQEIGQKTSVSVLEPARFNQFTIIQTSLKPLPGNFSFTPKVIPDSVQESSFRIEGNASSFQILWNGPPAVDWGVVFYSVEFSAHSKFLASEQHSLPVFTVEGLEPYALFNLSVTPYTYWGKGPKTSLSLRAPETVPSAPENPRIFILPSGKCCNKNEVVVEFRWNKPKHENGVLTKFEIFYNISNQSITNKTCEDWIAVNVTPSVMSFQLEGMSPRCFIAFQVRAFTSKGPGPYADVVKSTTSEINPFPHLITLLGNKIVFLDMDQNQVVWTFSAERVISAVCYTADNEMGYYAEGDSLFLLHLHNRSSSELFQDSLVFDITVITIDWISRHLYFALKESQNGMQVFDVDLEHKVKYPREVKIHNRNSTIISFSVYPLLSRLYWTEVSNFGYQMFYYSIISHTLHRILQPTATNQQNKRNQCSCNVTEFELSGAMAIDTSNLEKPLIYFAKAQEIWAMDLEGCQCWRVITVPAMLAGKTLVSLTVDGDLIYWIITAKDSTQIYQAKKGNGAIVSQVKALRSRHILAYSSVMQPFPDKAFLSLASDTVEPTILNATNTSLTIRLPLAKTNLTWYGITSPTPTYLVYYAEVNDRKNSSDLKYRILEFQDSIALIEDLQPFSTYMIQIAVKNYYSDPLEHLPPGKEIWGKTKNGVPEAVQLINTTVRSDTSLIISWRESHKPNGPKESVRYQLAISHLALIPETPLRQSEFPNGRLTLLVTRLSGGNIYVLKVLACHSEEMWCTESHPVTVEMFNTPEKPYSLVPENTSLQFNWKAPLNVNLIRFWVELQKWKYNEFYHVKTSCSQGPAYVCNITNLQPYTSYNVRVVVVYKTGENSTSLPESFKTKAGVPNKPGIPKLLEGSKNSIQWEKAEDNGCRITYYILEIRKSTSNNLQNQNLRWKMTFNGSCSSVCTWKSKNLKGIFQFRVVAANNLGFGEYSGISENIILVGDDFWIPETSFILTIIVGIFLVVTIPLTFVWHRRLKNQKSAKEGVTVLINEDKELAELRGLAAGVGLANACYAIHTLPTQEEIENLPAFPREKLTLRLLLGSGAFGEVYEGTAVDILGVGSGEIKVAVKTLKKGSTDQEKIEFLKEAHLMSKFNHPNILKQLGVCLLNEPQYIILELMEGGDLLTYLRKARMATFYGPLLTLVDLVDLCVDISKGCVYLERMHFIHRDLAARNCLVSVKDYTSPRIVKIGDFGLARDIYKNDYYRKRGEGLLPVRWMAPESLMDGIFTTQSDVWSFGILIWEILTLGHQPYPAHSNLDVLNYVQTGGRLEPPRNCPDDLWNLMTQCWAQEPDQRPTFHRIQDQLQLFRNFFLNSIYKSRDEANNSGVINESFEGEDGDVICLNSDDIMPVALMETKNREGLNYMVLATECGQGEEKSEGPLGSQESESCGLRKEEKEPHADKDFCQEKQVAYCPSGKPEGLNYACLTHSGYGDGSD

Block 1
Target: DNA polymerase theta, ATPase domain (POLQ, Homo sapiens, UniProt O75417)
UniProt O75417, sequence (whole entry, unmodified, looked up): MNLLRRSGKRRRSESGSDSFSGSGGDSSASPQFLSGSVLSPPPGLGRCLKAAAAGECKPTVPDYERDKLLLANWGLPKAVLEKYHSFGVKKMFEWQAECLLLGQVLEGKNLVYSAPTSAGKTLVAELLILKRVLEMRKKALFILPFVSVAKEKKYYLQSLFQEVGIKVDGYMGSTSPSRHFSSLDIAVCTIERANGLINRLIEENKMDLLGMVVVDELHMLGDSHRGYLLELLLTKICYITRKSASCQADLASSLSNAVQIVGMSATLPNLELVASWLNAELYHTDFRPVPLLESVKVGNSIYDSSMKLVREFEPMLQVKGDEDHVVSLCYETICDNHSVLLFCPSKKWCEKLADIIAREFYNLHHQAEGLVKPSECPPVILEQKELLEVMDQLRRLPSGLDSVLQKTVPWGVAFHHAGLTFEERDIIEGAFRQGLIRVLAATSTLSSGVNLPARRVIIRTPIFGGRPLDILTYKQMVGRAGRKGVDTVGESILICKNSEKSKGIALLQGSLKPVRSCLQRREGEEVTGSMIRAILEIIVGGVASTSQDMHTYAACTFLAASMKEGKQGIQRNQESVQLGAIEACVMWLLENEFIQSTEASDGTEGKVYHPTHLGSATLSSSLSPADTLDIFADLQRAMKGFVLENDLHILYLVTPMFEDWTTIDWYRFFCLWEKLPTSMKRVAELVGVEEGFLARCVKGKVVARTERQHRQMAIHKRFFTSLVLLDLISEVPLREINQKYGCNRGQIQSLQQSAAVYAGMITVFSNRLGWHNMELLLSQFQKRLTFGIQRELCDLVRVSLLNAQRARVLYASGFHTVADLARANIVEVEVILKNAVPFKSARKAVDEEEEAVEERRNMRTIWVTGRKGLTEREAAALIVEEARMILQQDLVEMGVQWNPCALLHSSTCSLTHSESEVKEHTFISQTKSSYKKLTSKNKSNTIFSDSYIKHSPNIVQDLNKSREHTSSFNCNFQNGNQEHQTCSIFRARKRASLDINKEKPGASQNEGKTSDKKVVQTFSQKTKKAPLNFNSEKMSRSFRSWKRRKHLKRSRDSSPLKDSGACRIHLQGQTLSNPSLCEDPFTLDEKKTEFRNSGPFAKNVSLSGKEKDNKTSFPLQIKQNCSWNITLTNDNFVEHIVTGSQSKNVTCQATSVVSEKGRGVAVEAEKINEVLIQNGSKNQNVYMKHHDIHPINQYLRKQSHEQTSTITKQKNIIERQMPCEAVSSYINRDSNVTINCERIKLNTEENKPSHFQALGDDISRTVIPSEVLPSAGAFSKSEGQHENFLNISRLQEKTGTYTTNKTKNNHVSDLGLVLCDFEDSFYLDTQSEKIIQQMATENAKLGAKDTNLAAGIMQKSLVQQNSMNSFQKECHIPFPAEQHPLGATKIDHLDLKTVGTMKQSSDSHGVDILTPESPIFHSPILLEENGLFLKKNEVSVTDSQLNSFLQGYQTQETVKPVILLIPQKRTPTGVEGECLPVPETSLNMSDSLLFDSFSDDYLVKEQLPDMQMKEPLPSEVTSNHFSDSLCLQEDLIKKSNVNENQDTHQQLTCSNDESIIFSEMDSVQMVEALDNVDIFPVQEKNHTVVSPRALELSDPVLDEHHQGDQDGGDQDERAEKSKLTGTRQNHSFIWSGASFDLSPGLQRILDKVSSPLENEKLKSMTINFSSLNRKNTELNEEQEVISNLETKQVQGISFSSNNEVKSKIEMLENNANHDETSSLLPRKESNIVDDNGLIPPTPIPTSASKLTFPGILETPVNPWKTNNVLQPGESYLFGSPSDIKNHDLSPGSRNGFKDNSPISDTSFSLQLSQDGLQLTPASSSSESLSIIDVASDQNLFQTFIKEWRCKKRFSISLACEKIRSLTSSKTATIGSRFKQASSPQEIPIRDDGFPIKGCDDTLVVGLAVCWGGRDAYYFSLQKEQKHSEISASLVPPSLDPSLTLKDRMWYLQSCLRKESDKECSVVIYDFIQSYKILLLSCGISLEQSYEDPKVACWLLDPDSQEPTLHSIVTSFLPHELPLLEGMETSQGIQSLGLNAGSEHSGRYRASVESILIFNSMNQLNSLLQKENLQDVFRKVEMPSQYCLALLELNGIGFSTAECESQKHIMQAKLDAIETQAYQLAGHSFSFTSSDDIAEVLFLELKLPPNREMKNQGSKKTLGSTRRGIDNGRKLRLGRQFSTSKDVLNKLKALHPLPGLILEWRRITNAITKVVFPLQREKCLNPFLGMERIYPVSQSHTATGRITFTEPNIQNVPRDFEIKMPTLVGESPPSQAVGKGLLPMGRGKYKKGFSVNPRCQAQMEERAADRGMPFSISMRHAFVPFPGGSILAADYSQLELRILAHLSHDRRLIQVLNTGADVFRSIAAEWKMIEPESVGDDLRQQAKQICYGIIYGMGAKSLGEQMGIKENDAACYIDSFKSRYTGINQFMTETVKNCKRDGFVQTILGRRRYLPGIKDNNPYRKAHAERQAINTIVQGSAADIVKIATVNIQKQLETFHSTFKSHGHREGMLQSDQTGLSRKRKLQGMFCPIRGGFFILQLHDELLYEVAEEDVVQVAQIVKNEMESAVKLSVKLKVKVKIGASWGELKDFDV
Effect on: enzyme activity
Action: inhibitor
Concentration: 77 µM
Reference: untreated
Quantity: remaining activity
CC(C)c1nc(N(C)S(C)(=O)=O)nc(-c2ccc(F)cc2)c1/C=C/[C@@H](O)C[C@@H](O)CC(=O)O: 99.5%
COC(=O)C1=C(C)NC(C)=C(C(=O)O[C@@H]2CCCN(Cc3ccccc3)C2)[C@@H]1c1cccc([N+](=O)[O-])c1 (racemic): 99.3%
OC[C@H]1O[C@@H](Oc2ccc(O)cc2)[C@H](O)[C@@H](O)[C@@H]1O: 103% and 96.1%
CCN(c1nc(N)c(C(=O)NC(=N)N)nc1Cl)C(C)C: 101%
Cn1cc(-c2ccc3nnc(C(F)(F)c4ccc5ncccc5c4)n3n2)cn1: 109% and 108% and 106% and 94.8%
CC(C)(Oc1ccc(C2CC2(Cl)Cl)cc1)C(=O)O (centres unmarked): 99.2%

Block 2
Structure (SMILES): O=C(Nc1ccc(Oc2ccc(F)cc2)cc1)N1CCc2ncccc2[C@H]1c1ccc(F)cc1
Effect on: cell-free assay
Technique: competition with immobilised ligand
Concentration: 1 µM
Quantity: remaining binding
Serine/threonine-protein kinase D2 (PRKD2, Homo sapiens, UniProt Q9BZL6): 100%
Mitogen-activated protein kinase kinase kinase 10 (MAP3K10, Homo sapiens, UniProt Q02779): 100%
NUAK family SNF1-like kinase 2 (NUAK2, Homo sapiens, UniProt Q9H093): 82%
Proto-oncogene tyrosine-protein kinase receptor Ret (RET, Homo sapiens, UniProt P07949): 94%
Tyrosine-protein kinase Fyn (FYN, Homo sapiens, UniProt P06241): 89%
Serine/threonine-protein kinase OSR1 (OXSR1, Homo sapiens, UniProt O95747): 90%
Serine/threonine-protein kinase WNK2 (WNK2, Homo sapiens, UniProt Q9Y3S1): 88%
Serine/threonine-protein kinase PAK 4 (PAK4, Homo sapiens, UniProt O96013): 94%
Mitogen-activated protein kinase kinase kinase 13 (MAP3K13, Homo sapiens, UniProt O43283): 98%
Peripheral plasma membrane protein CASK (CASK, Homo sapiens, UniProt O14936): 100%
Dual specificity mitogen-activated protein kinase kinase 3 (MAP2K3, Homo sapiens, UniProt P46734): 88%
Calcium/calmodulin-dependent protein kinase kinase 1 (CAMKK1, Homo sapiens, UniProt Q8N5S9): 99%
Proto-oncogene tyrosine-protein kinase ROS (ROS1, Homo sapiens, UniProt P08922): 76%
Tyrosine-protein kinase BTK (BTK, Homo sapiens, UniProt Q06187): 93%
Epidermal growth factor receptor (EGFR, Homo sapiens, UniProt P00533): 100%
Testis-specific serine/threonine-protein kinase 1 (TSSK1B, Homo sapiens, UniProt Q9BXA7): 87%
Tyrosine-protein kinase Lck (LCK, Homo sapiens, UniProt P06239): 94%
Phosphatidylinositol 4,5-bisphosphate 3-kinase catalytic subunit alpha isoform (PIK3CA, Homo sapiens, UniProt P42336): 83%
5'-AMP-activated protein kinase catalytic subunit alpha-2 (PRKAA2, Homo sapiens, UniProt P54646): 51%
Dual specificity mitogen-activated protein kinase kinase 5 (MAP2K5, Homo sapiens, UniProt Q13163): 81%

Block 3
Cell line: mouse MPNST tumor cells
Technique: high-content nuclear imaging
Item: cell number
Concentration: 10 µM
Time: 12 h
Notes: mean of 2 replicates
Reference: plate mean
Direction: higher = more cells
Quantity: nuclei count
CC(C)NC[C@H](O)COc1ccc(CC(N)=O)cc1: -0.672 z-score
OCC(CO)N[C@H]1C[C@](O)(CO)[C@@H](O)[C@H](O)[C@H]1O: 0.237 z-score
CN(CC[C@@H](Oc1ccc(C(F)(F)F)cc1)c1ccccc1)CC(=O)O: 0.106 z-score
CC(C)(C)NC(=O)[C@H]1CC[C@H]2[C@@H]3CC[C@H]4NC(=O)C=C[C@]4(C)[C@H]3CC[C@]12C: -0.487 z-score
CS(=O)(=O)Nc1ccc(-c2coc3cc(OCc4cccc(C(=O)O)c4)ccc3c2=O)cc1: 1.74 z-score
Cc1oncc1C(=O)Nc1ccc(C(F)(F)F)cc1: -0.835 z-score and -0.764 z-score
CC(CN(C)C)CN1c2ccccc2CCc2ccccc21 (centres unmarked): 0.374 z-score

Block 4
Species: mouse
Medium: microsomes or S9
Concentration: 2 µM
Time: 0.5 h
Quantity: remaining compound
CCCS(=O)(=O)c1nc2ccc(NS(=O)(=O)c3ccc(F)c(Cl)c3)cc2s1: < 1%
Cc1noc(C)c1S(=O)(=O)N1CCCC(Oc2nc(C(C)C)nc3c2CCOCC3)C1 (centres unmarked): 9.05%
CCOC(=O)c1cc2cc(NC(=N)N)ccc2s1: 3.15%
O=C(NC1CCN(Cc2cccc3c2OCO3)CC1)c1cc2ccccc2o1: 14.6%
c1ccc(Cc2nc(Cn3cc(-c4cncnc4)nn3)cs2)cc1: 89%

Block 5
Cell line: A-375
Concentration: 100 µM
Time: 36 h
Quantity: viability
CC(C)Oc1ccc2c(=O)c(-c3ccccc3)coc2c1: 75.5%
O=C(O)[C@H](CC(=O)N1C[C@H]2CCCC[C@H]2C1)Cc1ccccc1: 129%
CCN(CC)C(=S)SSC(=S)N(CC)CC: -0.461%
COc1cc2c(cc1OC)CC(=O)N(CCCN(C)C[C@H]1Cc3cc(OC)c(OC)cc31)CC2: 108%
CCC(=O)O[C@@H](O[P@](=O)(CCCCc1ccccc1)CC(=O)N1C[C@H](C2CCCCC2)C[C@H]1C(=O)O)C(C)C: 109%
CCOC(=O)Nc1ccc(NCc2ccc(F)cc2)nc1N: 104%

Repeated from above (block 5):
CCC(=O)O[C@@H](O[P@](=O)(CCCCc1ccccc1)CC(=O)N1C[C@H](C2CCCCC2)C[C@H]1C(=O)O)C(C)C: 109%
CCN(CC)C(=S)SSC(=S)N(CC)CC: -0.461%
